Measured values pooled from the literature.
Each numbered part is a random draw from the data of one study; scales do not carry over between parts.
Sequence of UniProt Q8N6U8 (whole entry, looked up): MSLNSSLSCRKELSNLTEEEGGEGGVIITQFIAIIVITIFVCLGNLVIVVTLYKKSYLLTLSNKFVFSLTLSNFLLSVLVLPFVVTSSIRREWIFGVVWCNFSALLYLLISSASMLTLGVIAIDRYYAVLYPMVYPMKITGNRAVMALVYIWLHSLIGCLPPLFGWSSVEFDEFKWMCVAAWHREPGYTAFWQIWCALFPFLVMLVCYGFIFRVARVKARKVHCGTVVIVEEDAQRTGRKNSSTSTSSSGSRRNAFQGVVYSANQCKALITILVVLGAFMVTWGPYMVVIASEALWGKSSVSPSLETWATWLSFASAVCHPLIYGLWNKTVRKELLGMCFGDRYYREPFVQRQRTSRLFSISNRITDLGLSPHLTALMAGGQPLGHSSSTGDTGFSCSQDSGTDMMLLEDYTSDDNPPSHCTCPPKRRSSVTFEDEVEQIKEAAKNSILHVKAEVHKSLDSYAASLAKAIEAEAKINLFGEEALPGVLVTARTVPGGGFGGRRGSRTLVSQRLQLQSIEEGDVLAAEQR
Sequence of UniProt Q9H4B4 (whole entry, looked up): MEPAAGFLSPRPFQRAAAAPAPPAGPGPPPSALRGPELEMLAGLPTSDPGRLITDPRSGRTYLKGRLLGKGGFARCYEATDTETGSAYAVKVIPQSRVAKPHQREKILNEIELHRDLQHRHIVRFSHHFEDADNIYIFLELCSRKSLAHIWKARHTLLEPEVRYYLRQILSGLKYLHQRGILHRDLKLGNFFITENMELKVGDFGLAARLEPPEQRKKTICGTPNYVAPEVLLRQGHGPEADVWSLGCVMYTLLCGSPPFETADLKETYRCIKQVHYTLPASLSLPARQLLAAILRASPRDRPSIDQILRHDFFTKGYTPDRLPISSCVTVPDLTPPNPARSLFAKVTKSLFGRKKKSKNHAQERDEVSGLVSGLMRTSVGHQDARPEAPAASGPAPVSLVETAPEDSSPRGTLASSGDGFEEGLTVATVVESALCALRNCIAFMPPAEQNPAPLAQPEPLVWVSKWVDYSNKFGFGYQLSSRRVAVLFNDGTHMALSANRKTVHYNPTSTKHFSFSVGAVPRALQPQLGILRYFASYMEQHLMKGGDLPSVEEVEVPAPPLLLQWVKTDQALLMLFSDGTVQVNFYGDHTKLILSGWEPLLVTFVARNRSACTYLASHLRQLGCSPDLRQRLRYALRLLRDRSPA
Sequence of UniProt P24723 (whole entry, looked up): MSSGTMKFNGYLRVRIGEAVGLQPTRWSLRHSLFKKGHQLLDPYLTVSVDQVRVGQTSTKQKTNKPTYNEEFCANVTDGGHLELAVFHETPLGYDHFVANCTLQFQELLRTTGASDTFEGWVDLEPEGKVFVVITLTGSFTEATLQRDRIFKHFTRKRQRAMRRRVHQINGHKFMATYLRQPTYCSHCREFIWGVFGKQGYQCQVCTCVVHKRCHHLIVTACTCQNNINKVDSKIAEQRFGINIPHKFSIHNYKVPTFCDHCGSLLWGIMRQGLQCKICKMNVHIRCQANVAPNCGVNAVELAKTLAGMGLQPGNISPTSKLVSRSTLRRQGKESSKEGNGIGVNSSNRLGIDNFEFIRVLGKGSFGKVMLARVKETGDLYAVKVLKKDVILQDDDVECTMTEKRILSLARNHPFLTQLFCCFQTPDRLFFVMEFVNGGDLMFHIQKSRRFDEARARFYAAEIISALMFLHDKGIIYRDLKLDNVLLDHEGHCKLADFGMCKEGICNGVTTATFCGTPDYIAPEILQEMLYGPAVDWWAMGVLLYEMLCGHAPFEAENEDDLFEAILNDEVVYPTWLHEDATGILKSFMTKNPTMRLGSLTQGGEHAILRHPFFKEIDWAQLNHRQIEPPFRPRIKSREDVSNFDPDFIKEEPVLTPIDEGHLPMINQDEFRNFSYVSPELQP
Sequence of UniProt Q04771 (whole entry, looked up): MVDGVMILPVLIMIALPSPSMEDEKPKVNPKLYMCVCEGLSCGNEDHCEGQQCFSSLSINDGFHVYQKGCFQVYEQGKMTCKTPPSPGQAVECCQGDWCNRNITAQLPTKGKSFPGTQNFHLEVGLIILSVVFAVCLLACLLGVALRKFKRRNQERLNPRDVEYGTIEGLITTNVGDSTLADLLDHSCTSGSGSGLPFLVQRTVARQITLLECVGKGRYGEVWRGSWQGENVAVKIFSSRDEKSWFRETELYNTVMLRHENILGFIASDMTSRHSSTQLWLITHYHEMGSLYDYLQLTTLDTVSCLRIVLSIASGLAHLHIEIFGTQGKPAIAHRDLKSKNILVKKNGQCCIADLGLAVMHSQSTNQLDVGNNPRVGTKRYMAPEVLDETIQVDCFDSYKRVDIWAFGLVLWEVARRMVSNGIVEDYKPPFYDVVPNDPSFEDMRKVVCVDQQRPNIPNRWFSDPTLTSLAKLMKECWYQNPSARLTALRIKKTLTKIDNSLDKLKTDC
Sequence of UniProt P11802 (whole entry, looked up): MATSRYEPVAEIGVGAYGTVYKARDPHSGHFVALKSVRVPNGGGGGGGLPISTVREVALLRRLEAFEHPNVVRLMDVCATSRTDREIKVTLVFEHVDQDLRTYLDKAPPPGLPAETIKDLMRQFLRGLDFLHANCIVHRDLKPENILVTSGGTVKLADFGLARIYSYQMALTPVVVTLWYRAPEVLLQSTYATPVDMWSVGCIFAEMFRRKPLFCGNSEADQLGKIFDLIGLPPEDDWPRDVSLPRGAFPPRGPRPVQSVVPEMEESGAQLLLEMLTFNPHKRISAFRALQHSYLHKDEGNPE
Sequence of UniProt P54646 (whole entry, looked up): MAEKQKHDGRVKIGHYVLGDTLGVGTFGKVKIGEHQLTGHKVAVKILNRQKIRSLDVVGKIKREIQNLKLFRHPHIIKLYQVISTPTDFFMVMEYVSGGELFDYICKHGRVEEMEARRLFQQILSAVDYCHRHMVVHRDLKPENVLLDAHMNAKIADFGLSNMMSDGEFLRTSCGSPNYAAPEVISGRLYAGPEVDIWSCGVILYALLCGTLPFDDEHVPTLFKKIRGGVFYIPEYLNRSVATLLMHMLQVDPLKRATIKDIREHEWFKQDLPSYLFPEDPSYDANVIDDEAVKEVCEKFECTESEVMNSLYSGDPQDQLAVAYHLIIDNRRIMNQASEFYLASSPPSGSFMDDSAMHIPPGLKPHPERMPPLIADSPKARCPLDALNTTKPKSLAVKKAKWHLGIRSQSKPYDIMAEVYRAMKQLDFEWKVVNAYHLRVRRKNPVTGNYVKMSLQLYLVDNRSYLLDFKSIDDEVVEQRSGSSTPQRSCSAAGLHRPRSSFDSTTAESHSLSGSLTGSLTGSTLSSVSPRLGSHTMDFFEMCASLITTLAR
Sequence of UniProt Q9BY21 (whole entry, looked up): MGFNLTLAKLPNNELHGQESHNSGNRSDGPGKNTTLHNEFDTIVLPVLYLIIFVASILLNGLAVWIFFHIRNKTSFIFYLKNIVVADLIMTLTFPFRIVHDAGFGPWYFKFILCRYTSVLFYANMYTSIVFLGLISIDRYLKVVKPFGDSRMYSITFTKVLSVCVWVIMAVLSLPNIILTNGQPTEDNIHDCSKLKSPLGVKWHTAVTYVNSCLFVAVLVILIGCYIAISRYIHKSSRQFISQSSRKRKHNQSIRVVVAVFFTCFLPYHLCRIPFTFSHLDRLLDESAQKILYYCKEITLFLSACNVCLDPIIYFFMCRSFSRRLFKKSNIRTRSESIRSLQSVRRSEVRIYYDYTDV
Sequence of UniProt Q9BPV8 (whole entry, looked up): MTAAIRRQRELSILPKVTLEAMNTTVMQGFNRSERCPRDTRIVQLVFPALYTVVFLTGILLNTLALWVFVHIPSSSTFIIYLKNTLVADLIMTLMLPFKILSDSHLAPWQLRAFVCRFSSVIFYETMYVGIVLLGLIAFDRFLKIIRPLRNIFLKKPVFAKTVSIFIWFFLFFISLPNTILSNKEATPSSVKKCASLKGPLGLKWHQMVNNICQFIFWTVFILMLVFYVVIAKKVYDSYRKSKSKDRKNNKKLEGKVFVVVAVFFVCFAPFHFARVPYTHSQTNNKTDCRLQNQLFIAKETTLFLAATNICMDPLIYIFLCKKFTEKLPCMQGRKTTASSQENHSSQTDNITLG

Set 1
SMILES: Cc1c(C(=O)O)cc(-c2ccc(C3CCNCC3)cc2)c2ccc(-c3ccc(C(F)(F)F)cc3)cc12
Method: competition with immobilised ligand
Tested at: 1 µM
| target | assay | remaining binding [%] |
| --- | --- | --- |
| GRK7 (Homo sapiens, UniProt Q8WTQ7) | binding | 91 |
| NTRK1 (Homo sapiens, UniProt P04629) | cell-free assay | 100 |
| RIPK2 (Homo sapiens, UniProt O43353) | binding | 100 |
| WNK3 (Homo sapiens, UniProt Q9BYP7) | binding | 100 |
| CDK8 (Homo sapiens, UniProt P49336) | binding | 100 |
| EIF2AK1 (Homo sapiens, UniProt Q9BQI3) | binding | 77 |
| NEK3 (Homo sapiens, UniProt P51956) | binding | 85 |
| TLK1 (Homo sapiens, UniProt Q9UKI8) | cell-free assay | 100 |
| EPHA3 (Homo sapiens, UniProt P29320) | cell-free assay | 100 |
| Tyrosine-protein kinase ABL1, phosphorylated (ABL1, Homo sapiens, UniProt P00519, Q252H) | binding | 100 |
| CDK4 (Homo sapiens, UniProt P11802) | binding | 100 |
| MAPK4 (Homo sapiens, UniProt P31152) | binding | 100 |
| ACVR1 (Homo sapiens, UniProt Q04771) | cell-free assay | 100 |
| PHKG2 (Homo sapiens, UniProt P15735) | cell-free assay | 100 |
| PLK3 (Homo sapiens, UniProt Q9H4B4) | binding | 100 |
| SGK3 (Homo sapiens, UniProt Q96BR1) | binding | 100 |
| TGFBR2 (Homo sapiens, UniProt P37173) | cell-free assay | 100 |
| PRKCH (Homo sapiens, UniProt P24723) | cell-free assay | 100 |
| SIK2 (Homo sapiens, UniProt Q9H0K1) | binding | 100 |
| PRKD3 (Homo sapiens, UniProt O94806) | binding | 100 |
| PRKAA2 (Homo sapiens, UniProt P54646) | cell-free assay | 100 |
| CSK (Homo sapiens, UniProt P41240) | cell-free assay | 100 |
| MST1R (Homo sapiens, UniProt Q04912) | cell-free assay | 100 |
| BTK (Homo sapiens, UniProt Q06187) | cell-free assay | 94 |
| ROS1 (Homo sapiens, UniProt P08922) | cell-free assay | 100 |

Set 2
SMILES: NC(N)=NC(=O)c1nc(Cl)c(N2CCCCCC2)nc1N
Observed: β-arrestin recruitment
Mode: agonist
Method: PRESTO-Tango
Tested at: 10 µM
Relative to: untreated
| target | fold over basal |
| --- | --- |
| HTR2C (Homo sapiens, UniProt P28335, I156V/I160V) | 0.36 |
| GPR68 (Homo sapiens, UniProt Q15743) | 0.52 |
| P2Y purinoceptor 13 (P2RY13, Homo sapiens, UniProt Q9BPV8) | 1.05 |
| GHSR (Homo sapiens, UniProt Q92847) | 1.17 fold |
| F2RL3 (Homo sapiens, UniProt Q96RI0) | 0.41 fold |
| Probable G-protein coupled receptor 156 (GPR156, Homo sapiens, UniProt Q8NFN8) | 1.08 |
| OXGR1 (Homo sapiens, UniProt Q96P68) | 0.63 |
| Adhesion G protein-coupled receptor L4 (ADGRL4, Homo sapiens, UniProt Q9HBW9) | 1.03 |
| G-protein coupled receptor 87 (GPR87, Homo sapiens, UniProt Q9BY21) | 0.98 |
| G-protein coupled receptor 161 (GPR161, Homo sapiens, UniProt Q8N6U8) | 0.95 |

Set 3
Host: mouse
Matrix: microsomes or S9
Tested at: 2 µM
Time: 0.5 h
| SMILES | remaining compound |
| --- | --- |
| CC(C)(C)/C(=C/c1ccc(Cl)cc1)Cn1ccnc1 | 97.8% |
| CCO[C@H]1CN(Cc2cccc(F)c2OC)C[C@@H]1O | 42.7% |
| CN(CC(C)(CO)CO)c1ccnc(C(C)(C)C)n1 | 60.4% |
| Cc1cnc(NC2CC(C)OC(C)C2)nc1NC1CC(C)OC(C)C1 (stereo not drawn) | 98.2% |
| Cc1cc(NC(C)c2cc(C)n(C)n2)cc(C)c1Cl (stereo not drawn) | 9.27% |
| CC(Oc1ccccc1)C(=O)Nc1c(-c2ccccc2)nc2sccn12 (stereo not drawn) | 1.19% |
| O=C(O)C1CC=CCC1C(=O)/N=c1\[nH]ccs1 (stereo not drawn) | 86.8% |
| Cc1nc2[nH]c(CCCCOCc3ccccc3)nc2cc1Br | 3.64% |
| CCCc1ccc(-c2ccc(/C=C/C(=O)O)cc2)nc1 | 18.1% |

Set 4
SMILES: C=CCc1ccc(O)c(-c2cc(CC=C)ccc2O)c1
Observed: chloride current
Method: whole-cell voltage clamp
ANO1 del476-501/E649D: Anoctamin-1 (ANO1, Homo sapiens, UniProt Q5XXA6, del476-501/E649D)
Sequence of UniProt Q5XXA6 (whole entry, unmodified, looked up): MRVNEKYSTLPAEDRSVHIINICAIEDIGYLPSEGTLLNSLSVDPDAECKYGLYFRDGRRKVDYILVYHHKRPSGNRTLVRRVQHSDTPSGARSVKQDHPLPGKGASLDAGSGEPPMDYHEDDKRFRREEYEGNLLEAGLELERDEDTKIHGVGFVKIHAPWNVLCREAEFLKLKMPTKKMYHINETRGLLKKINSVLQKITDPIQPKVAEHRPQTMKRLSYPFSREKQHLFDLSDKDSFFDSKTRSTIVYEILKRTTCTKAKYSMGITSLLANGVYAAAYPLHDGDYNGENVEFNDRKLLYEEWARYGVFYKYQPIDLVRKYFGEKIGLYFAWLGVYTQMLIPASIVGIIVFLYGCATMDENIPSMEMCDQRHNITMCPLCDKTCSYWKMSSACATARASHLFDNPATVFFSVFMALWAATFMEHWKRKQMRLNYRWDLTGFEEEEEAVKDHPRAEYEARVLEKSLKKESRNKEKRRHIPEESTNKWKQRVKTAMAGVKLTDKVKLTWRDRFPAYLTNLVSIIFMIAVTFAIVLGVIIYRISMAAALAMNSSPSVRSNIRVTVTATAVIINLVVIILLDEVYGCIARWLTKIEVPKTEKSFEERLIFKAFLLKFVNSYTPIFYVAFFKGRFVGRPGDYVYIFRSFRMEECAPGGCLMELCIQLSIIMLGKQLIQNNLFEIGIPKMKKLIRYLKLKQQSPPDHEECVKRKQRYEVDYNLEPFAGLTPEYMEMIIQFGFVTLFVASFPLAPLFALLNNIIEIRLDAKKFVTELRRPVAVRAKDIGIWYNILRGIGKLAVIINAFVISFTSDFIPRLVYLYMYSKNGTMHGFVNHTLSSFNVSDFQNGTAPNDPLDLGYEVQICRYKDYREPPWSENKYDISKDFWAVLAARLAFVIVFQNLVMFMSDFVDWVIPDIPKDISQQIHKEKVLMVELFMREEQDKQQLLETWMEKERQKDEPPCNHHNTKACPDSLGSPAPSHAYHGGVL
ANO1 del476-501/F807A: Anoctamin-1 (ANO1, Homo sapiens, UniProt Q5XXA6, del476-501/F807A)
| target | assay | setting | IC50 |
| --- | --- | --- | --- |
| Anoctamin-1 (ANO1, Homo sapiens, UniProt Q5XXA6, D383A/del476-501) |  | membrane voltage 100 mV | 36.8 µM |
| Anoctamin-1 (ANO1, Homo sapiens, UniProt Q5XXA6, del476-501) |  | membrane voltage 60 mV, with: 300 nM Ca2+ | 21.6 µM |
| ANO1 del476-501/E649D | inhibitor | E623D mutant at 100 mV | 56.9 µM |
| Anoctamin-1 (ANO1, Homo sapiens, UniProt Q5XXA6, del476-501/F627A) |  | membrane voltage -20 mV | 19.2 µM |
| Anoctamin-1 (ANO1, Homo sapiens, UniProt Q5XXA6, del476-501/F803A) |  | membrane voltage 100 mV | 20.7 µM |
| ANO1 del476-501/E649D | inhibitor | E623D mutant at -60 mV | 57.9 µM |
| ANO1 del476-501/E649D | inhibitor | E623D mutant at 60 mV | 40.9 µM |
| Anoctamin-1 (ANO1, Homo sapiens, UniProt Q5XXA6, del476-501/R541D) | inhibitor | R515D mutant at -100 mV | 207 µM |
| Anoctamin-1 (ANO1, Homo sapiens, UniProt Q5XXA6, del476-501/K629D) | inhibitor | 40 mV holding voltage | 220 µM |
| ANO1 del476-501/F807A | inhibitor | mutant F781A at 100 mV, with: 300 nM Ca2+ | 21.3 µM |
| ANO1 del476-501/F807A |  | membrane voltage -60 mV | 22.5 µM |
| Anoctamin-1 (ANO1, Homo sapiens, UniProt Q5XXA6, del476-501/E649K) | inhibitor | E623K mutant at -20 mV | 229 µM |
| Anoctamin-1 (ANO1, Homo sapiens, UniProt Q5XXA6, del476-501/M544A) |  | membrane voltage 60 mV | 82.3 µM |

Repeated from above (set 2):
| target | fold over basal |
| --- | --- |
| GPR68 (Homo sapiens, UniProt Q15743) | 0.52 |
| F2RL3 (Homo sapiens, UniProt Q96RI0) | 0.41 fold |
| Adhesion G protein-coupled receptor L4 (ADGRL4, Homo sapiens, UniProt Q9HBW9) | 1.03 |
| P2Y purinoceptor 13 (P2RY13, Homo sapiens, UniProt Q9BPV8) | 1.05 |
